Measurements from different studies.
Each numbered part is a random draw from the data of one study; scales do not carry over between parts.
Sequence of UniProt O75716 (whole entry, looked up): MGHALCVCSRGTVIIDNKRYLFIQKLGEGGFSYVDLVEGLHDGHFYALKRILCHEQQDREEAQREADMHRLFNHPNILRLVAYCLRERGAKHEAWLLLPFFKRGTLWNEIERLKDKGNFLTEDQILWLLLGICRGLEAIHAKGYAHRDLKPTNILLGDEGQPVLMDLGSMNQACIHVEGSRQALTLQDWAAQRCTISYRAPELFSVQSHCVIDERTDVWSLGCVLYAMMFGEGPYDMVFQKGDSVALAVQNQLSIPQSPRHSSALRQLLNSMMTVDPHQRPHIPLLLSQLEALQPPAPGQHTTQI
Sequence of UniProt Q9UK32 (whole entry, looked up): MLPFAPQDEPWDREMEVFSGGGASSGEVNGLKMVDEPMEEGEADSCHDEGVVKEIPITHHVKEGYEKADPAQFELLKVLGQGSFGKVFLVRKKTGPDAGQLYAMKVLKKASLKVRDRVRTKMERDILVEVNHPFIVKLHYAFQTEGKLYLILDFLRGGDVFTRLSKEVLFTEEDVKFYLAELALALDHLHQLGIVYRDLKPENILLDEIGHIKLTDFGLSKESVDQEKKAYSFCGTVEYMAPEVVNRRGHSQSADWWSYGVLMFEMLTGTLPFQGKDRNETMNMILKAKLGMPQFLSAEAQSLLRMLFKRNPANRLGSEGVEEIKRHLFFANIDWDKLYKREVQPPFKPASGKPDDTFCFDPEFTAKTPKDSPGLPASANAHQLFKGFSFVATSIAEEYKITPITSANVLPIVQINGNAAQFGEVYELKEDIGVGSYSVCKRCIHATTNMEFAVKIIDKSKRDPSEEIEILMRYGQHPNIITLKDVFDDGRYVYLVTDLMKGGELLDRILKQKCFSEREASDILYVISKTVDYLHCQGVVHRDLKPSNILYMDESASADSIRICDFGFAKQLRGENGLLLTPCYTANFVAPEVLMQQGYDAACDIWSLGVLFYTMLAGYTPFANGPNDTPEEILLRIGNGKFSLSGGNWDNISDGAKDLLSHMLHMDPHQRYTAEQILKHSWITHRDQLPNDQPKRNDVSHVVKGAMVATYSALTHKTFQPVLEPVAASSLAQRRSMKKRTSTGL
Sequence of UniProt P54762 (whole entry, looked up): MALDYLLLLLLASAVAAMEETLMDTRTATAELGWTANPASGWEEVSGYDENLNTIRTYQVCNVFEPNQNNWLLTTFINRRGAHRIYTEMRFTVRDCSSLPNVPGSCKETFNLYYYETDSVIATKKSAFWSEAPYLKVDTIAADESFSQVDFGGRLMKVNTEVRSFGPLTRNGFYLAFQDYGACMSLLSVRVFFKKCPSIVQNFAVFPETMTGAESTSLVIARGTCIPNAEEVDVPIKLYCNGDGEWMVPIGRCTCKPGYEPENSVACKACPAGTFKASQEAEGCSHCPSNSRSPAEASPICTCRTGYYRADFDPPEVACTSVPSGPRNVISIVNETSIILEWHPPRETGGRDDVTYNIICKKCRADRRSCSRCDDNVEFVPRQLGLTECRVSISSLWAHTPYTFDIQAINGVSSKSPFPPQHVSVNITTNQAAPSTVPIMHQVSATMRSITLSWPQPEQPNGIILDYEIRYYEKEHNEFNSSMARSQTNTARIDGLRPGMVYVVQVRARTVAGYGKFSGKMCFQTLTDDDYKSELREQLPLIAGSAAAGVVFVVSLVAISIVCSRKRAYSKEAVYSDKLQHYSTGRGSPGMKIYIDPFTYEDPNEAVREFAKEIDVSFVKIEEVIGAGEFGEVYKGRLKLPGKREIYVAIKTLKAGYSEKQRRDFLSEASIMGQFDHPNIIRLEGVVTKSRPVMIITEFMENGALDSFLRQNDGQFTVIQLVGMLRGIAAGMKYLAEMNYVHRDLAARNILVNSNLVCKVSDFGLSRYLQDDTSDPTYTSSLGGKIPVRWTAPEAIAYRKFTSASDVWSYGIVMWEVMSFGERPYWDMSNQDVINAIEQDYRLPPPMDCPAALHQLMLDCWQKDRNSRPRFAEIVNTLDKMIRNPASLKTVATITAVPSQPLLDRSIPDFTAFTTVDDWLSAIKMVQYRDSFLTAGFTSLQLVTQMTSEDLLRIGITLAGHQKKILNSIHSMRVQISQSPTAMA
Sequence of UniProt Q96PF2 (whole entry, looked up): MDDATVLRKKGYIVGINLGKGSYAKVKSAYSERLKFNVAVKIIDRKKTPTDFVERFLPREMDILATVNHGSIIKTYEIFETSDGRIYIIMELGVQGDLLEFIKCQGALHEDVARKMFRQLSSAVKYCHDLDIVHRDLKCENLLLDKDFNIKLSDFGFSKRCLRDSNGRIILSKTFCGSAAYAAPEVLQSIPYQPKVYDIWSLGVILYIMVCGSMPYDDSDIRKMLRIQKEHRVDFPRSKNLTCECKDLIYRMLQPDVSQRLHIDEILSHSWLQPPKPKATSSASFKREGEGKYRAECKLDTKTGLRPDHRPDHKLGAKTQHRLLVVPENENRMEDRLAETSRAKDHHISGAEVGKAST
Sequence of UniProt Q8NE63 (whole entry, looked up): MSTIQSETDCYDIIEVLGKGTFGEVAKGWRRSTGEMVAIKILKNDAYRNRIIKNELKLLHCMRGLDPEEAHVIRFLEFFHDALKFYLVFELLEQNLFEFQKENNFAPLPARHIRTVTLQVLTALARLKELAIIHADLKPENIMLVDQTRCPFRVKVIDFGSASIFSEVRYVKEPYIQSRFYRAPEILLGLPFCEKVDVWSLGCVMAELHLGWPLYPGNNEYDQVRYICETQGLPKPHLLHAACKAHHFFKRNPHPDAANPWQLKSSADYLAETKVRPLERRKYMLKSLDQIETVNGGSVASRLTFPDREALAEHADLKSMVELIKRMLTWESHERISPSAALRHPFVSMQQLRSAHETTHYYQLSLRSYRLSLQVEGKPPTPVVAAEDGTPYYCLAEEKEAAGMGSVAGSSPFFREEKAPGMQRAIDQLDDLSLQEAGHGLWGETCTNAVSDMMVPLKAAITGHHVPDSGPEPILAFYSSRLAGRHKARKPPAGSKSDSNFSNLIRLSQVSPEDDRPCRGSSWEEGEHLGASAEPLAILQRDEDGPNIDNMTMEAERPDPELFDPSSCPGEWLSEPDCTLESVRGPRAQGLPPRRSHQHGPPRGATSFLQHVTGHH
Sequence of UniProt Q00534 (whole entry, looked up): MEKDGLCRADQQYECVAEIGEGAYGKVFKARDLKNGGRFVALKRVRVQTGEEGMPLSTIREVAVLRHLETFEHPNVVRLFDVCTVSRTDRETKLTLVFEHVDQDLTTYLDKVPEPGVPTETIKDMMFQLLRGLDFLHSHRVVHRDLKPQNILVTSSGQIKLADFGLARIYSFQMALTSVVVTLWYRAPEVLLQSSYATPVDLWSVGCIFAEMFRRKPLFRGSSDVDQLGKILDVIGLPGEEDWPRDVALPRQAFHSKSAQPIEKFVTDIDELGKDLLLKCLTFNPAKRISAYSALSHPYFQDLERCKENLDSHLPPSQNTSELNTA
Sequence of UniProt O43781 (whole entry, looked up): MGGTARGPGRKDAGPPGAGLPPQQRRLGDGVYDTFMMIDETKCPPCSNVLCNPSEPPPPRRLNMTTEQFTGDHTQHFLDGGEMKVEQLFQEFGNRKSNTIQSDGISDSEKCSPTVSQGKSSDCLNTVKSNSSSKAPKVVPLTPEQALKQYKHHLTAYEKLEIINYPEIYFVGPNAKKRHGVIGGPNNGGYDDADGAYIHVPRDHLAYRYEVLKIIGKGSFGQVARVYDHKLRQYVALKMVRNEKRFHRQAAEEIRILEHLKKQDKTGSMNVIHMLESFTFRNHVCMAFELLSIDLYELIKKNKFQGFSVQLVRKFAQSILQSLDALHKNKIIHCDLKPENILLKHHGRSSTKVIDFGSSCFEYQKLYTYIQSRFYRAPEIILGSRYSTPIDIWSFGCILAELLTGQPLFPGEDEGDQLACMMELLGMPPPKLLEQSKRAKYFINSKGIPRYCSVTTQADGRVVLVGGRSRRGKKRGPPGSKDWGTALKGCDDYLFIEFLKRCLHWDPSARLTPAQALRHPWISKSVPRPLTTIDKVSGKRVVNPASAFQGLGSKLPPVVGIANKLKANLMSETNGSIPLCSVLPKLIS
Sequence of UniProt P06493 (whole entry, looked up): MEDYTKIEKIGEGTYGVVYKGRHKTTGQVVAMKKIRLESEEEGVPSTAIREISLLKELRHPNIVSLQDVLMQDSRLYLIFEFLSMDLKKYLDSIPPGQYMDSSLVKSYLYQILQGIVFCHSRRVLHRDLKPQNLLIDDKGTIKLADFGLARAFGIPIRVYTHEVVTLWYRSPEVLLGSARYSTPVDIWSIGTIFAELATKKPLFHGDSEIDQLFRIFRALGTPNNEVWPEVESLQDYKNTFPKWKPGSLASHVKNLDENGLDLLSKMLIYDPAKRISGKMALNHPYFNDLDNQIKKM

Set 1
SMILES: CCn1cnc2c(Nc3cccc(Cl)c3)nc(N[C@H]3CCCC[C@H]3N)nc21
Read-out: enzyme activity
Mode: inhibitor
Concentration: 0.5 µM
Baseline: control
Quantity: remaining activity
EPHA4 (Homo sapiens, UniProt P54764): 78.5%
RPS6KA6 (Homo sapiens, UniProt Q9UK32): 75.7%
STK16 (Homo sapiens, UniProt O75716): 101%
TSSK2 (Homo sapiens, UniProt Q96PF2): 109%
EPHB1 (Homo sapiens, UniProt P54762): 56.6%
BLK (Homo sapiens, UniProt P51451): 87.1%
AXL (Homo sapiens, UniProt P30530): 98.7%
DYRK3 (Homo sapiens, UniProt O43781): 83.7%
Cyclin-dependent kinase 1, with cyclin B (CDK1, Homo sapiens, UniProt P06493): 16.4%
SRMS (Homo sapiens, UniProt Q9H3Y6): 85.9%
HIPK4 (Homo sapiens, UniProt Q8NE63): 88.4%
Cyclin-dependent kinase 6, with cyclin D3 (CDK6, Homo sapiens, UniProt Q00534): 76.9%

Set 2
Target: Diamine acetyltransferase 1 (Homo sapiens, UniProt P21673)
Mode: inhibitor
Concentration: 10 µM
Baseline: control
Quantity: remaining activity
Target sequence (P21673 1-171): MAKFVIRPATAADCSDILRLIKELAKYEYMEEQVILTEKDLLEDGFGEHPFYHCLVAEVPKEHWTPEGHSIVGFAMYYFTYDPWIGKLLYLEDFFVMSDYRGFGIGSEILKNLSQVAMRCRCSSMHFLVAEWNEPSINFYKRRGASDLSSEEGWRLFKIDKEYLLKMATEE
c1ccc2c(c1)sc1ccccc12: 93.5%
CO[C@H]1C[C@H](O[C@H]2CC[C@]3(C)[C@H]4CC[C@]5(C)[C@@H](C6=CC(=O)OC6)CC[C@]5(O)[C@@H]4CC[C@]3(O)C2)O[C@H](C)[C@H]1O[C@@H]1O[C@H](CO)[C@@H](O)[C@H](O)[C@H]1O: 95.4%
C[C@H](O)CCO: 93.9%
C=CCc1ccc(OC)cc1: 99.3%
CCCCC/C=C/C/C=C/CCCCCCCC(=O)O[C@H](COC(=O)CCCCCCCCCCCCCCC)COP(=O)([O-])OCC[N+](C)(C)C: 85.8%
C[C@@H]1C(=O)O[C@H]2[C@H](O)[C@]34[C@@H]5OC(=O)[C@]3(O[C@@H]3OC(=O)[C@H](O)[C@@]34[C@H](C(C)(C)C)[C@H]5O)[C@@]12O: 75.2%

Set 3
Target: Calcium/calmodulin-dependent protein kinase type II subunit alpha (CAMK2A, Homo sapiens, UniProt Q9UQM7)
Sequence of UniProt Q9UQM7 (whole entry, looked up): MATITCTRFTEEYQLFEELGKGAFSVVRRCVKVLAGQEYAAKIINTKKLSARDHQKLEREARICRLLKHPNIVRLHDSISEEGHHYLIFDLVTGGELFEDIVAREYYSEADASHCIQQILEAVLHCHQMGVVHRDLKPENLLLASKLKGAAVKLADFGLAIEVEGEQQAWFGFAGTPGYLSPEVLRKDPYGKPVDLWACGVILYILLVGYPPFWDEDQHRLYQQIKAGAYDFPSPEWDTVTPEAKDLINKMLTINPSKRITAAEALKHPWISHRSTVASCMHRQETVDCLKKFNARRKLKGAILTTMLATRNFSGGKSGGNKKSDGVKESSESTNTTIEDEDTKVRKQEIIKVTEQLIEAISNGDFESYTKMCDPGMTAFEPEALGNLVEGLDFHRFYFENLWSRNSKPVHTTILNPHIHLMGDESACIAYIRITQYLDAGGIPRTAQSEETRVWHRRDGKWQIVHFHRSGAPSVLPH
Read-out: enzyme activity
Mode: inhibitor
Concentration: 10 µM
Quantity: inhibition
CC(=O)O[C@H]1C[C@H](O[C@H]2[C@@H](O)C[C@H](O[C@H]3[C@@H](O)C[C@H](O[C@H]4CC[C@@]5(C)[C@H](CC[C@@H]6[C@@H]5C[C@@H](O)[C@]5(C)[C@@H](C7=CC(=O)OC7)CC[C@]65O)C4)O[C@@H]3C)O[C@@H]2C)O[C@H](C)[C@H]1O[C@@H]1O[C@H](CO)[C@@H](O)[C@H](O)[C@H]1O: -4%
O=C(O)CCCCCCCCCO: -20%
COc1cc(C(=O)O[C@H]2[C@@H]3C=CO[C@@H](O[C@@H]4O[C@H](CO)[C@@H](O)[C@H](O)[C@H]4O)[C@@H]3[C@@]3(CO)O[C@@H]23)ccc1O: 25%
C[C@]12CC[C@H](O)C[C@H]1CC[C@@H]1[C@@H]2[C@H](O)C(=O)[C@]2(C)[C@@H](c3ccc(=O)oc3)CC[C@]12O: -4%
CN1C[C@@H]2C[C@H](C1)c1cccc(=O)n1C2: -13%
COc1ccc2c(c1OC)CN1CCc3cc4c(cc3C1C2)OCO4 (stereo not drawn): 5%
COc1c(C(C)C)cc2c(c1O)[C@@]1(C(=O)O)CCCC(C)(C)[C@@H]1CC2: -23%

Set 4
Cell line: HEK-293T/ACE2
Method: Hoechst nuclei count
Concentration: concentration not given
Time: 16 (unit not given)
Baseline: vehicle
Quantity: viability
COc1c(N2CCNC(C)C2)c(F)cc2c(=O)c(C(=O)O)cn(C3CC3)c12 (stereo not drawn): 98.3%
CC[C@@H]([C@H](C)O)n1ncn(-c2ccc(N3CCN(c4ccc(OC[C@@H]5CO[C@@](Cn6cncn6)(c6ccc(F)cc6F)C5)cc4)CC3)cc2)c1=O: 96%
C[C@]12CC[C@H]3[C@@H](CCC4=CC(=O)CC[C@@H]43)[C@@H]1CC[C@@H]2O: 106%
CN(C)[C@@H]1C(O)=C(C(N)=O)C(=O)[C@@]2(O)C(O)=C3C(=O)c4c(O)ccc(Cl)c4[C@@H](O)[C@H]3C[C@@H]12: 100%
CN1CCC(=C2c3ccccc3CCn3c(C=O)cnc32)CC1: 106%
C#C[C@]1(O)CC[C@H]2[C@@H]3CCC4=CC(=O)CC[C@@H]4[C@H]3C(=C)C[C@@]21CC: 104%
Nc1cccc2c1C(=O)N(C1CCC(=O)NC1=O)C2=O (stereo not drawn): 103%
CC(=O)O[C@]1(C(C)=O)CC[C@H]2[C@@H]3CCC4=CC(=O)CCC4=C3[C@@H](c3ccc(N(C)C)cc3)C[C@@]21C: 105%
Nc1nc(NC2CC2)c2ncn([C@H]3C=C[C@@H](CO)C3)c2n1: 100%
COc1c(C)c2c(c(O)c1C/C=C(\C)CCC(=O)O)C(=O)OC2: 93%
Nc1ccn(C[C@@H](CO)OCP(=O)(O)O)c(=O)n1: 107%
O=C(NC1CCN(CCCCC2(C(=O)NCC(F)(F)F)c3ccccc3-c3ccccc32)CC1)c1ccccc1-c1ccc(C(F)(F)F)cc1: 61.3%
CC(=O)OCC(=O)[C@@]12OC(C)(C)O[C@@H]1C[C@H]1[C@@H]3C[C@H](F)C4=CC(=O)C=C[C@]4(C)[C@@]3(F)[C@@H](O)C[C@@]12C: 102%
CCn1cc(C(=O)O)c(=O)c2cc(F)c(N3CCNCC3)nc21: 101%

Repeated from above (set 3):
C[C@]12CC[C@H](O)C[C@H]1CC[C@@H]1[C@@H]2[C@H](O)C(=O)[C@]2(C)[C@@H](c3ccc(=O)oc3)CC[C@]12O: -4%
COc1c(C(C)C)cc2c(c1O)[C@@]1(C(=O)O)CCCC(C)(C)[C@@H]1CC2: -23%
CN1C[C@@H]2C[C@H](C1)c1cccc(=O)n1C2: -13%
COc1ccc2c(c1OC)CN1CCc3cc4c(cc3C1C2)OCO4 (stereo not drawn): 5%
COc1cc(C(=O)O[C@H]2[C@@H]3C=CO[C@@H](O[C@@H]4O[C@H](CO)[C@@H](O)[C@H](O)[C@H]4O)[C@@H]3[C@@]3(CO)O[C@@H]23)ccc1O: 25%
O=C(O)CCCCCCCCCO: -20%
